Published values pooled from the literature.
Each numbered part is a random draw from the data of one study; scales do not carry over between parts.

Block 1 — technique: protein-binding microarray; form: double-stranded DNA, one strand shown; medium: in vitro; tested at: 250 nM; setting: 60-bp whole probe; added: salmon DNA 0.4 mg/ml; baseline: random background probes; direction: higher = stronger binding; endpoint: log fluorescence; shared flanks, not repeated: GCCTAGCAC … GTCTTGATTCGCTTGACGCTGCTG
Target: Interferon regulatory factor 5, full length, phosphomimetic (IRF5, Homo sapiens, UniProt Q13568-2, residues 1-514, K96S/S451D/S453D/S456D/S462D)
AGGTTCTACTCCGTTAGTTGGTGCTAG: -0.00779 z-score
GACGGCTTCGGTTCCGGGACGTGCTAG: 0.395 z-score
GAAAATCAACCAGGTGGTGTGTGCTAG: 0.777 z-score
GACGGACAGGGGTATCGGGACGTGCTA: 0.1 z-score
TCAGAGTCCTGTTTGATACTGTGCTAG: -0.511 z-score
GACGATATCGGGTATCGCGACGTGCTA: 1.95 z-score
GACGGTTTCCTAATCCTGACGTGCTAG: 0.285 z-score
TTAGAACTGAGTATGGATTAGTGCTAG: 0.0931 z-score
TTAGAACTGAGTAGCGATTAGTGCTAG: 0.287 z-score
GACGGACTGGGGTTTTGGGACGTGCTA: -0.533 z-score
TTAGGTCTCGGTATCGTTTAGTGCTAG: 2.08 z-score
TCAATACTCGTTTACATACTGTGCTAG: 0.587 z-score
TCATCTTTTCATTACTGACTGTGCTAG: 1.39 z-score
TTAGGTTTCGGTTTCGATTAGTGCTAG: 11.8 z-score
GACGATATCAGTCTCGAGAGGTGCTAG: 1.03 z-score
GACGAATTCAGACTGGAGACGTGCTAG: -0.119 z-score
TTAGGTTTCGAGTTTCGGTTAGTGCTA: 10.2 z-score
TCACATCTGCAACATCTAACTGTGCTA: 0.337 z-score
GACGGTCTCCTTTTCCTAACGTGCTAG: 0.116 z-score
GTGCCTTTATATACCTGAATGTGCTAG: -0.00967 z-score
TCACTGTTCTTTTCAGTACTGTGCTAG: 1.07 z-score
GACGGTATCGACACTCGGGACGTGCTA: 1.55 z-score
TTAGGTATCCTTATCCTCTAGTGCTAG: -0.106 z-score
TATGTTCCCTATATAAGGCGGTGCTAG: 0.128 z-score
AGGAGTATTTATCTGCAAAGGTGCTAG: 0.203 z-score

Block 2 — technique: RNAcompete; form: RNA; medium: in vitro; tested at: 20 nM; setting: 7-mer, probes averaged, single round; baseline: mean of 7-mers; direction: higher = stronger binding; endpoint: 7-mer Z-score
Target: PABPC1L2, full length, GST fusion (mouse, UniProt A0ABA7IW68)
Target sequence (chain): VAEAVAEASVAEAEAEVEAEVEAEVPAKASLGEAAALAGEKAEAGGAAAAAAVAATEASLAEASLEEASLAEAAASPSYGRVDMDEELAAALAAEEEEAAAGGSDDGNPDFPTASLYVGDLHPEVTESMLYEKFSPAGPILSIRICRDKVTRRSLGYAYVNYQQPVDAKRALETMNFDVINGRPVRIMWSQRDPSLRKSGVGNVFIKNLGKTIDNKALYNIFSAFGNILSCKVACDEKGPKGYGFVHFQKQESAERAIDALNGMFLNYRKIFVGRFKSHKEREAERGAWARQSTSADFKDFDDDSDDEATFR
CACGAGA: 0.175
GCGUAUG: -0.316
ACCGCCC: -0.383
GGCACGU: 0.0569
UUAAGUG: 0.00436
UGCAUAG: -0.209
ACCUACA: -0.0681
ACUAUGU: -0.117
CCCGGUU: -0.445
CAGUGCG: -0.139
UUAAUUG: -0.231
AAAAUGA: 4.71
UGUUCUU: -0.42
ACUAGCC: -0.228
AAUAAAG: 3.07
CCCACAC: -0.376
AAUCUGU: -0.0283
AGAAUGC: -0.0536
UCCGCAA: -0.209
AAGUGCC: 0.162
UUGUGUA: -0.47
CAUGGGG: 0.249

Block 3 — technique: RNA Bind-n-Seq; form: RNA; medium: in vitro; tested at: not given; setting: RNA with constant flanks, ends assumed; baseline: input RNA pool; direction: higher = stronger binding; endpoint: bound/input enrichment
Target: RING finger protein unkempt homolog, zinc fingers 1-6, GST-SBP tag (UNK, Homo sapiens, UniProt Q9C0B0, residues 30-357)
Shared flanks, not repeated: GGGAGUUCUACAGUCCGACGAUC … CAACAGAGGAUUGAGCAUCA
Target sequence (chain): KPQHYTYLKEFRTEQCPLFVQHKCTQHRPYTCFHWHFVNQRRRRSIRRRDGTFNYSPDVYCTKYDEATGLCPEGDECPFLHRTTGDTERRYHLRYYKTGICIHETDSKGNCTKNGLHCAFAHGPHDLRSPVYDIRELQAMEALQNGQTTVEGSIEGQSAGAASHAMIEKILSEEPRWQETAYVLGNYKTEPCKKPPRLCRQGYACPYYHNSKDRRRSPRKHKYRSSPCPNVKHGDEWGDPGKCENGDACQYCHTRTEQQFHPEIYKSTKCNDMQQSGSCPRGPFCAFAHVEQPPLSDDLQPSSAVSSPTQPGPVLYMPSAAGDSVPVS
UGUGCAUUGGGUUAAAAACGACAACCAACAUCAGCCAUGAAAGAUCCAAGUCGCAGCAGUACCCGCCCAAGCAUCAUCAAUGAAGAUGUGAUUAUUAACGGUCAUUCUCAUGAAGAUGAC: 0.122 ratio
GCAGAGCUUGAUACACUGAACGAAGACUCCUACAAAGACAGCACCCUCAUCAUGCAGUUGCUCCGAGACAACUUAACAUUAUGGACAUCAGACAGUGCAGGAGAAGAAUGUGAUGCAGCA: 0.174 ratio
GAACCGAAAGGCCAAAUUCCCUCCUCCCUUCUACUGCUUCUACCAACUGGAAGCACAGAAAACCCGAAUUUCAUUUAUUUUGUUUUUAAAAUAUAUAUGUUGAUUUCUUGUAACAUCCAA: 0.294 ratio
GGAAAUCUAGACCUCCAAGUGUAUGCAGCAGAGUCUCCUCCAUCUUGAAACAAACAAAACAUCCGGCUCCUGUUGUAUCUUGGUUUAGUAACAGGCCCUUAAUUAACUUAUUUGUACAUG: 0.622 ratio
UUCAAAAUCGGAGCAUGUCGUCAUGGAGACAGAUGUUCUCGGUUGCACAAUAAACCAACCUUCCGCCAGACCAUUGCCCUCUUGAACAUUUACCGUAACCCUCAAAACUCUUCCCAGUCU: 0.133 ratio
GUCUCCUUUUUUGGCCCUAGGCUGGUUAGGAACCUGUACACCUUCACUCUCUCAUCAUUAAACCGUGGCCUUUUUCAGUAUUUCCUCUCUCCCCUCUAUAAGUUGCUGAAAUCACAAAGC: 0.659 ratio
ACGAGCUGAUGGAUUGACGUGCGGGCUGCUUAGCCCAGACCGCCGCCCUCGCGCUCGCGCCUCCGACUGGAAUUGGCUGUCUCGGGGCUCUGGCCGCCGGCCUCUCCUCCGCGUUUUCCU: 0.0428 ratio
AGCAGACCAAAAAUUCUGAUGACCGCAUCUAGAUUAUUUUUUUAUAAAAAUGAUUUUCACUACCGCUAUGUUACGCUAAGCUACUGUCCAAUCUCUUGUGAUGUGUAACUUUUACAUGUG: 2.27 ratio
UAAAUACAUAUAUAUUUGCUUGACGAAUCACCAAGCACAUUGGUGAGAGGGUCUUUUCCUACCGAAUUCACUCAUCCGUUUUGUUGUGUUGUCCUGAGCUUCCCAAUGUUGAGGUCUCUA: 0.194 ratio
UUAAAAAAGAAUCCUUUGGGCCAGUGAAUAAAACAGGGCAAAUUUUAGUUAGAAAUUCCGACCGAAAAUAUACACUUGCAACUUUCCUAGUGUCUCUGAGUCUGCAGCAGUCACUAUAGC: 0.526 ratio
AGGAGAAAAAUCAUCUUAUCAGACGAAGGCAAAAUGUAUGGUAGAAAUGAAUUGACCGCCAGAUACAUCAAACUCAGGACGGGAAAGACAAGGACCAGGAAGCAGGUGUCUAGUCACAUU: 0.244 ratio

Block 4 — technique: RNA Bind-n-Seq; form: RNA; medium: in vitro; tested at: 200 nM; setting: whole 134-nt RNA, ends assumed; added: 150 mM KCl; baseline: input library; direction: higher = stronger binding; endpoint: log2 enrichment
Target: Ras GTPase-activating protein-binding protein 1, full length (G3BP1, Homo sapiens, UniProt Q13283)
Sequence of UniProt Q13283 (whole entry, looked up): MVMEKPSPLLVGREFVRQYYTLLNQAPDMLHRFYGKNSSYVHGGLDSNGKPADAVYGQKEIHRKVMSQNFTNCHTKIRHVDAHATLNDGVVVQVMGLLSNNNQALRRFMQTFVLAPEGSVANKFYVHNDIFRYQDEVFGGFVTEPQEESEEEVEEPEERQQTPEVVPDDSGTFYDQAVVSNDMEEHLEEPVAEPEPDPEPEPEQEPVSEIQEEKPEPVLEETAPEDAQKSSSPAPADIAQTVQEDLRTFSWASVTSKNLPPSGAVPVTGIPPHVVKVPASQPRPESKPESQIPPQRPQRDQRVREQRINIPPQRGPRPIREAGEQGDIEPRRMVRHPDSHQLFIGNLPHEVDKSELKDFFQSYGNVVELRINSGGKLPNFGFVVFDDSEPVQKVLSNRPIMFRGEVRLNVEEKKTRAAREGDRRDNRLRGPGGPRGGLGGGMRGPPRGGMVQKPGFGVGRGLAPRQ
Shared flanks, not repeated: GGGAGUUCUACAGUCCGACGAUC … UGGAAUUCUCGGGUGUCAAGG
CUGUGCUACACAUCGUAUGUACCGAAUCGGGGAAAAAGGGGUUUUUUUGGGGUUUUUGGGGAAAGUAUUAUGUUACGCCGUUCGGAUCUG: -0.147
CCUGUGCUACACAUCGUAUGUACCGAAUCGGGGUUUUUUUGGGGAAAAAAAGGGGUGGGGAAAGUAUUAUGUUACGCCGUUCGGAUCUGC: 0.372
UCUCUUAUGCUAUUGGAGUUUCUCAUCCAUUAUCUAUCUCCAUUUUCCAUUAUGGUACCUCUCAGAAGAGUGAGAGAGAGCUAUUAGAGA: -1.34
UGGGAGGUGGAUUUUGUUUAUUUUUUUAGCUCAUUUCCAGGGGUGGGAAUUUUUUUUUAAUAUGUGUCAUGAAUAAAGUUGUUGUUGAAA: 0.551
CACAGACAACACGCACCCACACAGACACAUAGGGAAGGGGUUGGGAUGGGGACAGGGUGCACAGCAGGGCGGGGUAGGACCCCAGCCCCU: 1.82
CUGUGCUACACAUCGUAUGUACCGAAUCGGGGAAAAAGGGGUUUUUUUGGGGAAAAAGGGGAAAGUAUUAUGUUACGCCGUUCGGAUCUG: -0.0746
GCAGGAAGUAAAAACCAAUGGAAAUGCUUCGGAUAGUGGCAGGGGUGGGGGUUGCUAAGGAAAGGGUGGGAUGGGAGUGGGUAAAGAGUU: 1.17
CCUCAAGUCCUGUGCUACACAUCGUAUGUACCGAAUCGGAAGGGGAAGGAAGGAAAGUAUUAUGUUACGCCGUUCGGAUCUGCACUUCCA: -0.506
ACCAUGCAGGUGGGCAUCUUUGGGAAGUGGGGCAAGGUGGGGAUAGGGAGGGGGGUAACACUUUGGGAACAGGUGGUCCCAGGUCGUUUC: 1.02
UAACUUUAGAGGAGGAUCUGAUGCAUAUGGCAGUGGACGUGGAUUUGGGGAUGGCUAUAAUGGGUAUGGAGGAGGACCUGGAGGUGGCAA: 0.438
UCCUGUGCUACACAUCGUAUGUACCGAAUCGGGAAAAAAAGGGUUUUUUUGGGUUUGGGAAAGUAUUAUGUUACGCCGUUCGGAUCUGCA: -0.544
UUGAUUGAUAUUACAGGCAAGAACCAGGAUGAAUGUGUGAUUGCUUUGCAUGACUGCAAUGGAGAUGUCAACAGAGCUAUCAAUGUUCUU: -2.43
UUUUCUCACGAUGCACCUCCCCCUGGCACUAAGAAAAAGCACUUAUCCAUUGAGCAGCUGAAUGCUCGUCGCAGGAAAGUAUGGCUCAGC: -0.466
AAGUCCUGUGCUACACAUCGUAUGUACCGAAUCGGGAAAAGGGGAAAAGGAAAAGGGAAAGUAUUAUGUUACGCCGUUCGGAUCUGCACU: -0.561

Repeated from above (block 3):
GGAAAUCUAGACCUCCAAGUGUAUGCAGCAGAGUCUCCUCCAUCUUGAAACAAACAAAACAUCCGGCUCCUGUUGUAUCUUGGUUUAGUAACAGGCCCUUAAUUAACUUAUUUGUACAUG: 0.622 ratio
UUCAAAAUCGGAGCAUGUCGUCAUGGAGACAGAUGUUCUCGGUUGCACAAUAAACCAACCUUCCGCCAGACCAUUGCCCUCUUGAACAUUUACCGUAACCCUCAAAACUCUUCCCAGUCU: 0.133 ratio
GUCUCCUUUUUUGGCCCUAGGCUGGUUAGGAACCUGUACACCUUCACUCUCUCAUCAUUAAACCGUGGCCUUUUUCAGUAUUUCCUCUCUCCCCUCUAUAAGUUGCUGAAAUCACAAAGC: 0.659 ratio
ACGAGCUGAUGGAUUGACGUGCGGGCUGCUUAGCCCAGACCGCCGCCCUCGCGCUCGCGCCUCCGACUGGAAUUGGCUGUCUCGGGGCUCUGGCCGCCGGCCUCUCCUCCGCGUUUUCCU: 0.0428 ratio
